Measured values of several laboratories.
Every numbered part comes from another study and shows a few of its results, in no order.

Study 1 — technique: RNA Bind-n-Seq; form: RNA; medium: in vitro; tested at: 1 µM; setting: whole 134-nt RNA, ends assumed; with: 150 mM KCl; baseline: input library; reading: higher = stronger binding
Target: Ras GTPase-activating protein-binding protein 1, C-terminal RGG region (G3BP1, Homo sapiens, UniProt Q13283)
UniProt Q13283, sequence (whole entry, looked up): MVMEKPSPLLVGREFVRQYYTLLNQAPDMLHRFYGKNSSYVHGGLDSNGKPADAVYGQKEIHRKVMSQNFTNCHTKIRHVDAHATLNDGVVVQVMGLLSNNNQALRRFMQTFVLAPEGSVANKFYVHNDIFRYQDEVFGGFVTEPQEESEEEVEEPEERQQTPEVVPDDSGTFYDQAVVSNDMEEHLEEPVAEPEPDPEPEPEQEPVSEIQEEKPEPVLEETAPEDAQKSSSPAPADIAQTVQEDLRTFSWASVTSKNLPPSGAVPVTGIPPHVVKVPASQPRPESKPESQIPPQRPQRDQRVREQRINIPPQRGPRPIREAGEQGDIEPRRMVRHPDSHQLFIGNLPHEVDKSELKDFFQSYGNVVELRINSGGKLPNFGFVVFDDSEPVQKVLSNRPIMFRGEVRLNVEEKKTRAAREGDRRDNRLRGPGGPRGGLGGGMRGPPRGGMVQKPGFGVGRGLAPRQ
Strand | log2 enrichment
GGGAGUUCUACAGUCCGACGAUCGUCCUGUGCUACACAUCGUAUGUACCGAAUCGGAAAAAAAGGAAAAAGGUUUUUUUGGAAAGUAUUAUGUUACGCCGUUCGGAUCUGCACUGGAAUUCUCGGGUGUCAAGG | -1.85
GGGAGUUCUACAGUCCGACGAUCCUCAAGUCCUGUGCUACACAUCGUAUGUACCGAAUCGGUUUGGUUUGGAAAGGAAAGUAUUAUGUUACGCCGUUCGGAUCUGCACUUCCAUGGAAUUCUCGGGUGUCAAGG | -1.12
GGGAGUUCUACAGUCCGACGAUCUCCUUUUUUUUUUUCUUUGAAUGUAUUUAUUUCUUGUAGUCUACUGGUGCUGUUGUGACGGAGAGCCAGACGUACAAAAACCGAGCUGGUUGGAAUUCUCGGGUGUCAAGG | -0.674
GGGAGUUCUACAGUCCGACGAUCCAAGUCCUGUGCUACACAUCGUAUGUACCGAAUCGGGGAGGGGAAAGGGGUGGGGAAAGUAUUAUGUUACGCCGUUCGGAUCUGCACUUCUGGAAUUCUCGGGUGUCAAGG | 2.83
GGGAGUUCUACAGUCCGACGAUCGUCCUGUGCUACACAUCGUAUGUACCGAAUCAAACCCAAACCCCCCCAAACCCCCAAAAAAGUAUUAUGUUACGCCGUUCGGAUCUGCACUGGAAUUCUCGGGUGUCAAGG | -1.02
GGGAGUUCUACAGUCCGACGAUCUGGCCCUGGUGGCAUGCGGGGAGGAAGAGUUGGCCUCAUGGAUCGUGGUGGUCCCGGUGGAAUGUUCAGAGGUGGCCGUGGUGGAGACAGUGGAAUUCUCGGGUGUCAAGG | 2.03
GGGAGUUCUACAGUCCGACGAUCGUCCUGUGCUACACAUCGUAUGUACCGAAUCGGGAAAAAGGGGAAAAAGGAAAAAGGGGAAAGUAUUAUGUUACGCCGUUCGGAUCUGCAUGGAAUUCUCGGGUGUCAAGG | -1.06
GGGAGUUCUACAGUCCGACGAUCCUGUGCUACACAUCGUAUGUACCGAAUCGGAAAAAAAGGGAAAAAAAGGGGAAAAAAAGGGAAAGUAUUAUGUUACGCCGUUCGGAUCUGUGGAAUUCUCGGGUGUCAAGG | -1.41
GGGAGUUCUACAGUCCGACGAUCUCCUGUGCUACACAUCGUAUGUACCGAAUCAAAUUUUUUUAAACCCCCCCAAACCCAAAAAAGUAUUAUGUUACGCCGUUCGGAUCUGCAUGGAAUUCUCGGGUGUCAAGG | -0.675
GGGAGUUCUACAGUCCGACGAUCACCAUGCAGGUGGGCAUCUUUGGGAAGUGGGGCAAGGGGGGGAUAGGGAGGGGGGUAACACUUUGGGAACAGGUGGUCCCAGGUCCUUUCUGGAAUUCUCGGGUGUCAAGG | 2.11

Study 2 — technique: RNA Bind-n-Seq; form: RNA; medium: in vitro; tested at: 365 nM; baseline: no-protein control; reading: higher = stronger binding
Target: RNA binding protein fox-1 homolog 2, RRM domain, GST-SBP tag (RBFOX2, Homo sapiens, UniProt O43251-10, residues 100-194)
Setting: natural RNA segment, single round, ends assumed
Residues (chain): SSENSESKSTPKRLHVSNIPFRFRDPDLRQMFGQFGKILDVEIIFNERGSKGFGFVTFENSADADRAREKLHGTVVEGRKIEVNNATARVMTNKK
Strand | RBNS enrichment (R)
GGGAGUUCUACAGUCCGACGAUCUUGUUGUUGUUGUUUAUUUGUUAUUUUAAAGGUAAAUUGCACUUUUAAAAAAAUAAUUGGUUGACUUAAUAUAUUUGCUUUUUUUCUCACCUGCACUUAGAGGAAAUUUGUGGAAUUCUCGGGUGCCAA | 5
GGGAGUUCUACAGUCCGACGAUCCCAUCUCUACCUUCCCUGGCCAGUCCUCUGACGGUUCACAAGGGCCAGAGAUAUGGACUUUAUUUUUGUUCCCAGGACUGAUGUAGCUUAGUGGCAAGUGUCUCCCUGGCUGGAAUUCUCGGGUGCCAA | 0.512
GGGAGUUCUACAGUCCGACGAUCCGGCCUACACUCUCCAACACAAUCCAGAGGCCACAACUAGGUCCCACAGCUAAUUUACCCCUGGAGAUGGGCUCAGGACAGCUGCCUACCCUAGUCUCACCAAUCGUGGAUGGAAUUCUCGGGUGCCAA | 0.451
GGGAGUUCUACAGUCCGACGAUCGGAUGUGGAGCUUUCUGCCAUGAUGAUUGCAUUGGCCCCUCCAAACUCUGUGUCUCCUGCCUUGUUGUUCGGUAAUAAGACUGUAGCGUAUGUAAAGGAGGGAAGGGAAGUGGAAUUCUCGGGUGCCAA | 0.966
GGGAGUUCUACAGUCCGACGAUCCGUUUGCAGAAGGGGGUCUCUUCUUCCAGGUAGCUGAAAGGGGAAGACCUGACGUACUCUGGUUAGGUUAGGACUUGCCCUCGUGGUGGAAACUUUUCUUAAAAAGUUAUUGGAAUUCUCGGGUGCCAA | 0.258
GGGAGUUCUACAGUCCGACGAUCUUGUAGUGUUAAGAUUCCAUACAGAGAGCCCUGUUAUGCAUACCAGUACUACAAAAUAAAGGGGAAAGAAUUCUUGUAGAUAGAAUCCCAAGAGAGCUCAUUUAAUUGUGUGGAAUUCUCGGGUGCCAA | 0.682
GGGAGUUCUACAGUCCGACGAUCUCAGAUUAUUCUCAAAGAACACAGUAGCACCUAAAUCUGUUUUCAAUUGGGCUUAAAAAUUGACAUGCAAUCUCUUAAGUUUUUUGUUCAGCUACUUCACACUGAGUACCUGGAAUUCUCGGGUGCCAA | 1.46
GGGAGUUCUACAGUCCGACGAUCGUAGAUUUCAUUGAGGUUUUAGAUUGAAACUUUGAAUAAAUCAAAAAUACUCAUUCUUAUUUACUGCAACCUUCUCAUAUUUUAUAUACUUAGAUGGAAAAUUAUUUUUUUGGAAUUCUCGGGUGCCAA | 1.48
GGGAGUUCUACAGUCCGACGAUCUUUGUAUUUAAUUUUAAAGUCAGUGUACUGCAAGGAGGCUGGAUGCAAGAUAGAUACUAUAUUAAACUGUACUGUUAUUUAAGAUGUAAUAAAGCAGUUUGACAUGAGGGUGGAAUUCUCGGGUGCCAA | 0.387

Study 3 — technique: RNA Bind-n-Seq; form: RNA; medium: in vitro; tested at: not given; baseline: input RNA pool; reading: higher = stronger binding
Target: RING finger protein unkempt homolog, zinc fingers 1-6, GST-SBP tag (UNK, Homo sapiens, UniProt Q9C0B0, residues 30-357)
UniProt Q9C0B0, sequence (30-357, looked up): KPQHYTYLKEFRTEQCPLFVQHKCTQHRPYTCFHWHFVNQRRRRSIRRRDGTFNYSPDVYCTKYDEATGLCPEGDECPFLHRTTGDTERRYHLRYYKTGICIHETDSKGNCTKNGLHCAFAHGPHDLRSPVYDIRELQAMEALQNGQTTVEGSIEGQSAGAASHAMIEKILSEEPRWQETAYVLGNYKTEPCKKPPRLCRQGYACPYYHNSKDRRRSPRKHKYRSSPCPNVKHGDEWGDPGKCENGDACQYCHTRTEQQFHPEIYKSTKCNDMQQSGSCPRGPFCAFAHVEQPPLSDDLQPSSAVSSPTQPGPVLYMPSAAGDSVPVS
Setting: RNA with constant flanks, human and mouse sites, ends assumed
Strand | bound/input enrichment
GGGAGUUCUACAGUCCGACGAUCGGCGGCCUCACGGACGAGGCCGCCCUCAGUUGCUGCUCCGACGCGGACCCCAGUACCAAGGAUUUUCUAUUGCAGCAGACCAUGCUACGAGUGAAGGAUCCUAAGAAGUCACUGGAUUUUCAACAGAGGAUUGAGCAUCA | 0.145 ratio
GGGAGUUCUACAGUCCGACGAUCCGAUAGGAGUGGCACCGUGGAUCCCCAGGAGCUACAGAAGGCCCUGACGACUAUGGGAUUCAGGUUGAGCCCCCAAACUGUGAAUUCAGUUGCAAAGCGAUACAGCACCAGCGGGAAGAUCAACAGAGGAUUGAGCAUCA | 0.15 ratio
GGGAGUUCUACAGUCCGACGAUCUUGGAAGAGACCAGUGUUGAAAGACAAAUACUUCAUCAGAAGGAAACAAAUCAGGAUGUGCAAUGUAAUCGUUUUUUCCCAAGUAGAAAAACAAAGCCUGUGAAAUGUAUACUAAAUGGACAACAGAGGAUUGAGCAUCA | 0.296 ratio
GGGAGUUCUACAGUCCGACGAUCAGCAAUAAAACAUAAUCACUCUAUUUGAAGAAAAUAUCUUGUUUUCUGCCAAUAGAUUUUUUAAAAUGUAGUCAGCAAAAUGGGGGUGGGGAAGCAGAGCAUGUCCUAGUUCAAUGUUGACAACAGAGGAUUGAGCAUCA | 0.803 ratio
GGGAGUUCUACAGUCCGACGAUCUCCUGGUGCGACAGCGUGGGACAAUGUGAACAUGGACUCGAAGACAUGGCCCUUUCUCUGUAGUUGAUUUUUUAAAUGUGCCAUUAUUGUUUUUAAAAAAAAAGGAAAAAAGAAAAGCAACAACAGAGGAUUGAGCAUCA | 0.432 ratio
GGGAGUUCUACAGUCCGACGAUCGUCAACAAGGUGGAGUUGCUGGUGAUGAAGGCACUCUCGGUGGGGCUGGUGAGAGGCAGCAUAGACGAGGUGGACAAGCGGGUUCACAUGACGUGGGUGCAGCCGCGAGUGCUGGAUUUGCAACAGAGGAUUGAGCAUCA | 0.345 ratio
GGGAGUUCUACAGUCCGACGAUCUUCCCAAGACCUUUAUAGGUGAUUUUGUUUUCUGGGCUCCUUAACUUCAUAAAUAGCUAGUAUCUUCCAGCAGUAGUAACAGUCUGGAUAACUUCUUCCAUAUCCCUCCCUCUUUGUUUUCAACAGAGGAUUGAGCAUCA | 4.72 ratio
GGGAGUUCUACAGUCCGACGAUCGUACAUUUUGUGCAAUGGCUUUAUCUAAAAGAAUGACGCUUCGUGAAAGCACUUUGUGGCCUUUUUUGGGGGGGAGGGUGAGAGAGUAGGAGAGAAUACCAUGUUAAGAUUAAAAAAAAACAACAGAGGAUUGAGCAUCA | 0.838 ratio
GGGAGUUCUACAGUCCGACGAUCCAGAGCAUAGCGAUUGUUUUUGGCCCCACCCUUCUAAAGCCAGAAAGAGAGACUGGUAAUAUAGCAGUUCAUACUGUGUACCAGAACCAGAUUGUAGAGCUGAUUCUCCUGGAAUUAAGCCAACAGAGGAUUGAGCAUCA | 0.376 ratio
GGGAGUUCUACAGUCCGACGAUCGACGCUGUGGCAGCUAUGGCAAAAGAUAAAGCAAAUAUGCAACACAGAUAUGUGGAGCUCUUCUUGAAUUCUACCGCAGGGACAAGUGGAGGAGCUUAUGAUCAUAGCUAUGUAGAGCUCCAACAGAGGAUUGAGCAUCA | 0.284 ratio
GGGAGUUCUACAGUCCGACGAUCACCCUGGACUGUGAGCCCAAGUGUGUGGAAGAGUUACCUGAGUGGAACUUUGAUGGCUCUAGUACCUUUCAGUCUGAAGGCUCCAACAGCGACAUGUACCUCCAUCCUGUUGCCAUGUUUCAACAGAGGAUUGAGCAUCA | 0.198 ratio

Study 4 — technique: protein binding microarray; form: double-stranded DNA, one strand shown; medium: in vitro; tested at: not given; baseline: not given; reading: higher = stronger binding
Target: Histone acetyltransferase KAT6A, winged helix 1, GST fusion (KAT6A, Homo sapiens, UniProt Q92794, residues 1-85)
Setting: 8-mer, flanks averaged, mean of 2 arrays, mostly near background
Residues (chain): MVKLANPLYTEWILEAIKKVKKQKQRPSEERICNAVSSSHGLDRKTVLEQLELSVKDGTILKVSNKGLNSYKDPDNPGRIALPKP
Strand | E-score
TCCGCAAA | 0.145
GCCGCGAC | 0.361
AGTTTTGA | -0.204
CTTCATCC | -0.121
CAGCACGC | 0.161
AAACGAAT | -0.143
TGGCTACA | -0.242
CCAACTTA | -0.194
AAGACCTT | -0.063
ATGGTACA | -0.0255
ACCTTAGG | -0.00928
CAAGTGTA | -0.135
AACAGCCG | 0.167
GCGATCTA | 0.0988
ATATAGAC | -0.0328
CGCCGTAC | 0.422
CCTTTAAA | -0.0686
TCCCCCGA | 0.221
GCTTGAGA | -0.209
ACTCACGA | -0.221
GAATGCCC | 0.0268
GTCTTAAA | -0.0772
CGAGAGGC | 0.108

Some of these lines once more (study 4):
Strand | E-score
GCCGCGAC | 0.361
AGTTTTGA | -0.204
CTTCATCC | -0.121
CAGCACGC | 0.161
AAACGAAT | -0.143
TGGCTACA | -0.242
CCAACTTA | -0.194
AAGACCTT | -0.063
ATGGTACA | -0.0255
